Experimental data gathered from unrelated publications.
Values joined by “and” are separate records of one study, mostly repeats; a detail may differ. ± marks the error that the study gave.

Under “mean tissue distribution”, `CSCC[C@H](N)C(=O)N[C@@H](C)C(=O)N[C@@H](CCCNC(=N)N)C(=O)N[C@@H](CCCNC(=N)N)C(=O)N[C@@H](CC(=O)O)C(=O)N[C@@H](CCCCN)C(=O)N[C@H](C(=O)N[C@@H](CC(=O)O)C(=O)N[C@@H](Cc1ccccc1)C(=O)N[C@@H](C)C(=O)N[C@@H](CCCNC(=N)N)C(=O)N[C@@H](CCCNC(=N)N)C(=O)N[C@@H](CCCNC(=N)N)C(=O)N[C@@H](CCCNC(=N)N)C(=O)NCCCCCC(=O)NCCCCC(NC(=O)CCCCCNC(=O)[C@H](CCCNC(=N)N)NC(=O)[C@H](CCCNC(=N)N)NC(=O)[C@H](CCCNC(=N)N)NC(=O)[C@H](CCCNC(=N)N)NC(=O)[C@H](C)NC(=O)[C@H](Cc1ccccc1)NC(=O)[C@H](CC(=O)O)NC(=O)[C@@H](NC(=O)[C@H](CCCCN)NC(=O)[C@H](CC(=O)O)NC(=O)[C@H](CCCNC(=N)N)NC(=O)[C@H](CCCNC(=N)N)NC(=O)[C@H](C)NC(=O)[C@@H](N)CCSC)[C@@H](C)O)C(=O)NCCCCC(NC(=O)C(CCCCNC(=O)CCCCCNC(=O)[C@H](CCCNC(=N)N)NC(=O)[C@H](CCCNC(=N)N)NC(=O)[C@H](CCCNC(=N)N)NC(=O)[C@H](CCCNC(=N)N)NC(=O)[C@H](C)NC(=O)[C@H](Cc1ccccc1)NC(=O)[C@H](CC(=O)O)NC(=O)[C@@H](NC(=O)[C@H](CCCCN)NC(=O)[C@H](CC(=O)O)NC(=O)[C@H](CCCNC(=N)N)NC(=O)[C@H](CCCNC(=N)N)NC(=O)[C@H](C)NC(=O)[C@@H](N)CCSC)[C@@H](C)O)NC(=O)CCCCCNC(=O)[C@H](CCCNC(=N)N)NC(=O)[C@H](CCCNC(=N)N)NC(=O)[C@H](CCCNC(=N)N)NC(=O)[C@H](CCCNC(=N)N)NC(=O)[C@H](C)NC(=O)[C@H](Cc1ccccc1)NC(=O)[C@H](CC(=O)O)NC(=O)[C@@H](NC(=O)[C@H](CCCCN)NC(=O)[C@H](CC(=O)O)NC(=O)[C@H](CCCNC(=N)N)NC(=O)[C@H](CCCNC(=N)N)NC(=O)[C@H](C)NC(=O)[C@@H](N)CCSC)[C@@H](C)O)C(N)=O)[C@@H](C)O` (some centres unmarked) is recorded as 8.18% (C57BL/6 mouse female, liver; dose not given, 3 h; reference: total).
For `CC[C@H](C)[C@H](NC(=O)[C@H](CCCNC(=N)N)NC(=O)[C@H](CCCCN)NC(=O)[C@H](Cc1ccc(O)cc1)NC(=O)[C@H](CC(=O)O)NC(=O)[C@H](C)NC(=O)CNC(=O)CCOCCOCCOCCNC(=O)CN1CCN(CC(=O)O)CCN(CC(=O)O)CCN(CC(=O)O)CC1)C(=O)N[C@H](C(=O)N[C@H](C(=O)N[C@@H](CCCCN)C(=O)N[C@H](C(=O)N[C@@H](CC(N)=O)C(N)=O)C(C)C)C(C)C)[C@@H](C)O` [copper-64 labelled], the tissue uptake was 0.578 ± 0.104 %ID/g (ex vivo gamma counting; male C57BL/6J mouse, B16-F10 tumour, intestinal lymph node; intravenous, 1.85 MBq, 100 min).
`COc1cnc2cccc(N3CCc4c(cc(Cn5ccnc5)cc4-c4cn(C)nc4C(F)(F)F)C3=O)c2c1` has a body weight of 28.2 ± 0.7 g (CD-1 mice; intraperitoneal, 50 mg/kg once daily, day 2).
For `O=C1NC2(CC2)COc2ncc(F)cc2[C@H]2COCCN2c2ccn3ncc1c3n2`, “organ-to-brain weight ratio” read 87.9 ± 18.4% (Sprague-Dawley rat, male, heart; oral, 20 mg/kg/day, 4 weeks, end of treatment).
`CSCC[C@H](NC(=O)CNC(=O)[C@H](CCCCN)NC(=O)[C@H](CC(C)C)NC(=O)[C@@H]1CCCN1C(=O)[C@H](CO)NC(=O)[C@H](Cc1c[nH]cn1)NC(=O)[C@H](Cc1c[nH]c2ccccc12)NC(=O)[C@H](CCCNC(=N)N)NC(=O)[C@H](CC(C)C)NC(=O)[C@H](CCCNC(=N)N)NC(=O)[C@H](Cc1c[nH]c2ccccc12)NC(=O)[C@H](CS)NC(=O)CCCCCNC(=O)CN1CCN(CC(=O)O)CCN(CC(=O)O)CCN(CC(=O)O)CC1)C(=O)O` [copper-64 labelled] gave a tissue uptake of 1.34 %ID/g (ex vivo biodistribution; BALB/c nude mice, bladder; intravenous, dose not given, 6 h, Huh-7 tumour-bearing).
For `CC(C)C[C@@H](NC(=O)[C@@H](CCCNC(=N)N)NC(=O)[C@@H](Cc1c[nH]cn1)NC(=O)[C@@H](Cc1c[nH]c2ccccc12)NC(=O)[C@@H](Cc1c[nH]cn1)NC(=O)[C@@H](Cc1ccccc1)NC(=O)[C@H](NC(=O)[C@@H](Cc1ccc(O)cc1)NC(=O)CNC(=O)CNC(=O)CCOCCOCCOCCNC(=O)CN1CCN(CC(=O)O)CCN(CC(=O)O)CC1)[C@H](C)O)C(=O)N[C@H](CC(N)=O)C(=O)N1CCC[C@@H]1C(=O)O` [gallium-68 labelled], the tissue ratio was 2.54 ± 0.65 (C57BL/6 mice, male; intravenous, 1.85 MBq, 30 min; reference: tumour over muscle).
`[Ga+3].[O-]c1ccc(Br)c2cccnc12.[O-]c1ccc(Br)c2cccnc12.[O-]c1ccc(Br)c2cccnc12` gave a partition coefficient of 35.6 (oil/water; pH 7.4).
For `CC(C)[C@@H]1NC(=O)CNC(=O)[C@H](CC(N)=O)NC(=O)[C@H](CCCNC(=N)N)NC(=O)[C@H](Cc2ccc(O)cc2)NC(=O)[C@H](C(C)C)NC(=O)[C@@H](NC(=O)[C@@H](NC(=O)[C@H](CC(N)=O)NC(=O)[C@H](Cc2c[nH]c3ccccc23)NC(=O)[C@H](C)NC(=O)[C@H](Cc2ccccc2)NC(=O)CNC(=O)[C@H](CCCCN)NC(=O)[C@H](Cc2ccccc2)NC(=O)[C@H](Cc2ccccc2)NC(=O)[C@H](CCCCN)NC(=O)OCC2c3ccccc3-c3ccccc32)C(C)C)CSSC[C@@H](C(=O)N[C@@H](Cc2c[nH]cn2)C(=O)N[C@@H](CCCNC(=N)N)C(=O)N[C@@H](CCCNC(=N)N)C(=O)N[C@@H](C)C(=O)N[C@@H](CC(N)=O)C(N)=O)NC(=O)[C@H](C(C)C)NC(=O)[C@H](CCCNC(=N)N)NC1=O`, “mean platelet volume” read 6.77 ± 0.24 fL (ICR mice, blood; intraperitoneal, 5 mg/kg, day 5).
The viability of `Cc1cc(-c2cc([C@@H](C)NC(=O)c3cc(OCCN(C)C)ccc3C)c3ccccc3n2)n(C)n1` is reported as 106% and 110% (Vero E6; 7.812 µM).
`CC(C)(C)C(=O)OCOP(=O)(OCOC(=O)C(C)(C)C)C1CCCN(O)C1=O` (centres unmarked) gave a TGI of 5.48 µM (MDA-MB-468).
For `COc1ccccc1-c1n[nH]c2nc(NC3CCN(C(=O)Cc4ccc(F)cc4F)CC3)ncc12`, the relative abundance was 0.84 (bead binding, competition bead pull-down, measured: LINJ.31.2410; Leishmania donovani axenic amastigote extract; 10 µM; reference: vehicle).
`COc1ccc(CNc2ccc3c(c2)S(=O)(=O)C=C3)cc1` gave a haemoglobin of 167 g/L (male C57BL/6 mice, blood; intraperitoneal, 10 mg/kg, day 8, group average).
For `CC[C@H](C)[C@H](NC(=O)[C@H](CCCNC(=N)N)NC(=O)[C@H](CCCNC(=N)N)NC(=O)[C@H](CC(C)C)NC(=O)[C@H](Cc1c[nH]c2ccccc12)NC(=O)[C@H](CCCCN)NC(=O)[C@H](CCCNC(=N)N)NC(=O)[C@H](CCCCN)NC(=O)[C@H](CCCNC(=N)N)NC(=O)[C@H](CCCNC(=N)N)NC(=O)CN)C(=O)NCC(=O)N[C@@H](CCCCN)C(=O)NCC(=O)N[C@H](C(=O)N[C@@H](CCCCN)C(=O)N[C@H](C(=O)N[C@H](C(=O)NCC(=O)NCC(=O)N[C@@H](C)C(=O)N[C@@H](C)C(=O)N[C@@H](CC(C)C)C(=O)N[C@@H](CC(=O)O)C(=O)N[C@@H](Cc1c[nH]cn1)C(=O)N[C@@H](CC(C)C)C(N)=O)[C@@H](C)CC)[C@@H](C)CC)C(C)C`, “acute toxic concentration” read 25 µM (zebrafish embryos 28 hpf, E3 medium; 1 h).
The viability of `Cc1ccc(OCCN(C)C)cc1C(=O)N[C@H](C)c1cc(-c2ccnn2C)nc2ccccc12` is reported as 90.4% and 121% (Vero E6; 3.906 µM).
`CC[C@H](C)[C@H](NC(=O)[C@H](Cc1ccc(O)cc1)NC(=O)[C@@H](NC(=O)[C@H](CCCNC(=N)N)NC(=O)[C@@H](N)CC(=O)O)C(C)C)C(=O)N[C@@H](Cc1c[nH]cn1)C(=O)N1CCC[C@H]1C(=O)O`: “elimination rate constant” 0.03 min⁻¹ (Beagle dog, plasma; subcutaneous, 10 mg/kg/day, day 27).
The organ weight of `CC(C)[C@H](NC(=O)[C@@H](NC(=O)[C@H](CCCNC(=N)N)NC(=O)[C@H](CCCNC(=N)N)NC(=O)[C@H](CCCNC(=N)N)NC(=O)[C@H](CCC(N)=O)NC(=O)[C@H](CCCNC(=N)N)NC(=O)[C@H](CCCNC(=N)N)NC(=O)[C@H](CCCCN)NC(=O)[C@H](CCCCN)NC(=O)[C@H](CCCNC(=N)N)NC(=O)CN)[C@@H](C)O)C(=O)N[C@H](C(=O)N[C@@H](CO)C(=O)N1CCC[C@H]1C(=O)O)[C@@H](C)O` is reported as 1.9 ± 0.381 g (ICR mice, male, liver; intranasal, 5 mg/kg daily, 4 weeks).
With `CC[C@H](C)[C@H](NC(=O)[C@H](CCCCN)NC(=O)CNC(=O)[C@H](CC(C)C)NC(=O)[C@H](Cc1ccccc1)NC(=O)[C@H](CCCCN)NC(=O)[C@H](CO)NC(=O)[C@H](Cc1ccccc1)NC(=O)[C@H](Cc1c[nH]c2ccccc12)NC(=O)[C@H](CCC(N)=O)NC(=O)[C@@H](NC(=O)[C@H](Cc1ccccc1)NC(=O)CCCCCNC(=O)CN1CCN(CC(=O)O)CCN(CC(=O)O)CCN(CC(=O)O)CC1)C(C)C)C(=O)N[C@@H](CCC(=O)O)C(=O)N1CCC[C@H]1C(=O)N[C@@H](CC(=O)O)C(=O)N[C@H](C(=O)N[C@@H](CO)C(=O)N[C@@H](CCC(N)=O)C(=O)N[C@H](C(=O)N[C@@H](CCC(N)=O)C(=O)N[C@@H](CC(=O)O)C(=O)N1CCC[C@H]1C(=O)N[C@@H](CC(N)=O)C(=O)N[C@@H](CC(=O)O)C(=O)N[C@@H](CCC(N)=O)C(=O)N[C@@H](Cc1ccc(O)cc1)C(=O)N[C@@H](CCC(=O)O)C(=O)N1CCC[C@H]1C(=O)N[C@@H](Cc1ccccc1)C(=O)O)C(C)C)C(C)C` [copper-64 labelled] the SUVmean was 2.58 SUV (dynamic PET; mouse both sexes, CT26 tumour, checkpoint inhibitor-treated, tumour; intravenous, 100 µCi/mouse, 210 s).

Some of these lines once more:
For `CC(C)C[C@@H](NC(=O)[C@@H](CCCNC(=N)N)NC(=O)[C@@H](Cc1c[nH]cn1)NC(=O)[C@@H](Cc1c[nH]c2ccccc12)NC(=O)[C@@H](Cc1c[nH]cn1)NC(=O)[C@@H](Cc1ccccc1)NC(=O)[C@H](NC(=O)[C@@H](Cc1ccc(O)cc1)NC(=O)CNC(=O)CNC(=O)CCOCCOCCOCCNC(=O)CN1CCN(CC(=O)O)CCN(CC(=O)O)CC1)[C@H](C)O)C(=O)N[C@H](CC(N)=O)C(=O)N1CCC[C@@H]1C(=O)O` [gallium-68 labelled], the tissue ratio was 2.54 ± 0.65 (C57BL/6 mice, male; intravenous, 1.85 MBq, 30 min; reference: tumour over muscle).
